Results of several laboratories.
Numbered parts are unrelated; each lists some results of a single study. Positions count from the first letter of the parent shown.

Set 1 — technique: RNA Bind-n-Seq; form: RNA; medium: in vitro; concentration: not given; reference: input RNA pool; direction: higher = stronger binding
Target: RING finger protein unkempt homolog, zinc fingers 1-6, GST-SBP tag (UNK, Homo sapiens, UniProt Q9C0B0, residues 30-357)
Chain of UniProt Q9C0B0 (30-357, looked up): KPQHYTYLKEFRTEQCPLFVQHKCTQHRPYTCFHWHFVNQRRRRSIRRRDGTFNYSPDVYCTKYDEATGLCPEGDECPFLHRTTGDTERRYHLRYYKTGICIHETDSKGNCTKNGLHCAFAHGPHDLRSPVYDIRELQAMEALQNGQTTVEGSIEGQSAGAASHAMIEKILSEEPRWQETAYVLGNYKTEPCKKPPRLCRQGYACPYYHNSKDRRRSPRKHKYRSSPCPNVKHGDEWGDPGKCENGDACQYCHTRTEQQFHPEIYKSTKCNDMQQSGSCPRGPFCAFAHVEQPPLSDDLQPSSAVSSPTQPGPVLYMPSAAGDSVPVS
Setting: RNA with constant flanks, human and mouse sites, ends assumed
All sequences stand within: GGGAGUUCUACAGUCCGACGAUC … CAACAGAGGAUUGAGCAUCA
Oligonucleotide	bound/input enrichment [ratio]
AAAUACUGGAAAAAGGCGAUGAACAUGAGGUACAGUGAUAGGACUAAUAUAAUUAGUAAACCAGUCCCACAGACACUGAUAAUGGCCUAUGACUAUGCCAAGGAGGUAAACAGUGCAGAA	0.652
UUAAGCCCAAGCCCCUUGGACACUGCAGCUCUUUUCAGUUUUUGCUUAUACACAAUUCAUUCUUUGCAGCUAAUUAAGCCGAAGAAGCCUGGGAAUCAAGUUUGAAACAAAGAUUAAUAA	0.152
CCUACUGUAAACAACUCAGGGCAGUAUUCUCGAUAUCCUUACAGUAACCUAAAUCAGGGAUUAGUUAACAGUACAGGGAUGAAUCAAAAUUUAGGCCUUACAAACAGUACUCCAAUGAAU	0.766
CUAGGCCAAUUCUGCUUCUCCAUCCCAAAGGAAGAAAAUUUGCCUUCCUUUGCCGACCCUUAGCAGGAAAGCAAAAUUAAAGGAAAAGAUAAAAGGACGCAGAGGGAAAGUGACAGCGAG	0.504
UAGCUUAUUUUUCCAUAUAGUAAUGCAGUUAGGGUUCUCAGCACUUUCUUUCUUCUAUCCUUUUUUUAACUCUUCAUAUUAUGUUCAGAUGAUCAUACUGUCAAGGUUUGUGUACAUUAC	8.04
CUUGGGGAACGGGGGUCGCCCCAGACCUUCGGGGGCUCCUCUGUCUCUAAAGGGAGCGAUGCAGGGCACGACCAGAGCCCCGCUGAAAAGAAGGGACUGCGCUGUCAGAACCCCGCCUGC	0.104
GGAACAUUUCAGGAAUGAAGAUAAUAACAUAGAUUUUAUGGUGGCCUCUAUGCAGUUUAUUAACAUUGUAGUCCAUUCAGUAGAAGACAUGAACUUCAGAGUUCAUCUACAAUAUGAAUU	2.68
AAGCUUUAGUUUACAUGUAAAAAGCUAGUCCCUAACUGGCUGGUGGCACAGGUGACCUGGAGUGAUAAAGAGCUCUGAGCUGGAAAAUGAGUGUCUGGCAUUACUUCAGUCAUGUGCUUU	1.51

Set 2 — technique: DHFR PCA, deep sequencing; medium: yeast; with: (+)-ABA 0.032 µM; reference: wild-type fitted maximum; direction: higher = stronger binding
Target: ABI1, truncated, D143A, DHFR fusion (Arabidopsis thaliana)
Setting: methotrexate growth selection, single substitutions
Parent: PYL1, truncated, DHFR fusion (Arabidopsis thaliana); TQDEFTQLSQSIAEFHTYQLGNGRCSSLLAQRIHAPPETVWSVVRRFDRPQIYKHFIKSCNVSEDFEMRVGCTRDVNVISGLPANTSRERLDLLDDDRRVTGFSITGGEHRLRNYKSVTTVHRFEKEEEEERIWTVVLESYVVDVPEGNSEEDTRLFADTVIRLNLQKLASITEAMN; partner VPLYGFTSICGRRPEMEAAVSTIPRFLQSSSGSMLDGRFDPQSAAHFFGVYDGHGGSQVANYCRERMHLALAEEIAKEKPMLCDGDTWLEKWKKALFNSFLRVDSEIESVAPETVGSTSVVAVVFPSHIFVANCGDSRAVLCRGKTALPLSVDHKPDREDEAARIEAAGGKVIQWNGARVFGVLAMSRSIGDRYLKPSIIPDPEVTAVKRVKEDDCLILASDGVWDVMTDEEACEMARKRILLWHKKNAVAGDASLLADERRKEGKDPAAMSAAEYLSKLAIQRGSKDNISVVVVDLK
Change	relative binding score [%]
G102A	5.63
F124C	15.6
S42L	-2.51
R45H	-0.147
D144M	-6.36

Set 3 — target: CCNA1, cyclin fold, Cln2 fusion (human); technique: yeast growth competition, sequencing; medium: yeast; setting: weak parent motif; reference: not given; direction: higher = stronger binding
Parent: PKN2 docking peptide (human); VSAVQKLDFSDTM; partner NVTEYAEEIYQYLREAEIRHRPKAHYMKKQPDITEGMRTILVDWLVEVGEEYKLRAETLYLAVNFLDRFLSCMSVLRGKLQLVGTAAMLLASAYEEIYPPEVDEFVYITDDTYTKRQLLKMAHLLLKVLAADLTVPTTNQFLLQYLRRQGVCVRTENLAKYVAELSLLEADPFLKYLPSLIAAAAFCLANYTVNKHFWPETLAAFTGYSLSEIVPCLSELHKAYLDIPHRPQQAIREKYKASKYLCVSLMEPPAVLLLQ
Change	normalised enrichment score
A3N	0.187
S10T	0.139
D11G	0.352
K6P	0.203

Mixed results
Substance	target	assay	system	conditions	scale	quantity	result
PhoQ, residues 284 288 289 292 302 303 AQGLTV	PhoP, residues 12 14 15 18 19 DLLYY (Escherichia coli, UniProt P23836)	Sort-seq, refers to: YFP reporter	E. coli	PhoQ-PhoP variant library, with: 10 µM Mg2+	reference: high Mg2+ state, higher = stronger signaling	fold induction	1.17

Some of these lines once more (set 2):
Change	relative binding score [%]
S42L	-2.51
